Measurements collected from several papers.
Cell line: PC-3

Compound	assay	setting	how to read	endpoint	value
CCCCCCC(=O)[O][Pt]([NH2])([NH2])([Cl])([Cl])[O]C(=O)CCC(C)C1CCC2C3CCC4CC(O)CCC4(C)C3CCC12C (centres unmarked)	PI flow cytometry	2 µM, 48 h		cells in S phase	36.2%
COC(=O)[C@H](C)NC(=O)[C@H](C)NC(=O)c1csc(-c2cccnc2)n1	cell growth or viability			EC50	> 30 µM
CCc1c(C)c2ccc(OC(C)C)c(C)c2oc1=O	cell growth or viability, MTT	31.25 µg/mL		viability	63.5%
[BH3-][P+]1(c2ccccc2)CCCCC1	Annexin V-FITC/PI flow cytometry	IC50, 72 h		late apoptotic cells	1.95%
CCS(=O)(=O)Oc1cc(/C=N/NC(=O)c2nc3ccccc3s2)ccc1OC	cell growth or viability, MTT	100 µM, 48 h		cell death	32%
COc1cc(/C=C/C(=O)/C=C(O)/C=C/c2ccc(OCC(=O)N3CCOCCOCCOCC3)c(OC)c2)ccc1OCC(=O)N1CCOCCOCCOCC1	cell growth or viability, SRB	25 µM		inhibition	31.6%
O=C1CCP(=O)(c2ccccc2)CC1	MTT	72 h	reference: IC50 HaCaT over IC50 PC-3	selectivity index	1
COc1cc(/C=C/C(=O)/C=C(O)/C=C/c2ccc(OCC(=O)N3CCOCCOCCOCCOCCOCC3)c(OC)c2)ccc1OCC(=O)N1CCOCCOCCOCCOCCOCC1	cell growth or viability, SRB	25 µM		inhibition	95%
Nc1cc2cccnc2c2ncccc12.[Cl-].[Cl-].[Ru+2].c1cnc2c(c1)ccc1cccnc12.c1cnc2c(c1)ccc1cccnc12	MTT	blue light	reference: IC50 HFF-1 over IC50 PC-3	selectivity index	0.7
C=C(NC(=O)c1csc(-c2cccnc2)n1)C(=O)NC(=C)C(=O)OC	cell growth or viability			EC50	26.6 µM
C#CC[C@]1(O)C[C@H](C)N2CCc3cc(OCc4cc(C)cc(C)c4)c(OCc4cc(C)cc(C)c4)cc3[C@@H]2C1 (relative stereo)	cell growth or viability, MTT			IC50	0.478 µM
CCN(C(=O)c1cc(F)ccc1Oc1nncnc1N1CCC2(C1)CN([C@H](CCCN(C)CCOC)C(C)C)C2)C(C)C	cell growth or viability	72 h		GI50	> 10 µM
CCc1cc(N2C(=S)N(c3ccc(C#N)c(C(F)(F)F)c3)C(=O)C2(C)C)ccc1OCCN1CCN(CC(=O)Nc2cccc(NC3CCC(=O)NC3=O)c2)[C@H](C)C1 (some centres unmarked)	cell proliferation	120 h, 10% FBS		GI50	> 10 µM
O=C(CCl)c1ccccc1Nc1cccc(C(F)(F)F)c1	cell growth or viability, SRB	48 h		GI50	11.7 µM

A few entries again:
Compound	assay	setting	how to read	endpoint	value
C#CC[C@]1(O)C[C@H](C)N2CCc3cc(OCc4cc(C)cc(C)c4)c(OCc4cc(C)cc(C)c4)cc3[C@@H]2C1 (relative stereo)	cell growth or viability, MTT			IC50	0.478 µM
